{"data": "Assay results of several laboratories", "note": "Parts stem from different laboratories: compare values within a part only."}
{"data": "Series 1", "target": "Interferon regulatory factor 5, full length, phosphomimetic (IRF5, Homo sapiens, UniProt Q13568-2, residues 1-514, K96S/S451D/S453D/S456D/S462D)", "technique": "protein-binding microarray", "molecule type": "double-stranded DNA, one strand shown", "sample": "in vitro", "tested at": "250 nM", "setting": "60-bp whole probe", "together with": "salmon DNA 0.4 mg/ml", "relative to": "random background probes", "reading": "higher = stronger binding", "constant ends, left off below": "GCCTAGCAC … GTCTTGATTCGCTTGACGCTGCTG"}
{"Strand": "TTAGGACTGGGGTTTCTGTTAGTGCTA", "log fluorescence": "1.04 z-score"}
{"Strand": "GACGACTTCGGGACTGGAGACGTGCTA", "log fluorescence": "-0.253 z-score"}
{"Strand": "ATCTCTGTCCGTGCTCAGCTCGTGCTA", "log fluorescence": "-0.216 z-score"}
{"Strand": "TTAGGTATCGGGTATCGGGTAGTGCTA", "log fluorescence": "4.95 z-score"}
{"Strand": "TTAGGTATCCGACTGCTTTAGTGCTAG", "log fluorescence": "-0.0812 z-score"}
{"Strand": "GACGGCTTCGGACTGGGGACGTGCTAG", "log fluorescence": "-0.365 z-score"}
{"Strand": "TCAAACTTAGTTTTCAAACTGTGCTAG", "log fluorescence": "0.372 z-score"}
{"Strand": "GACGGTATGGGGTATCGGGACGTGCTA", "log fluorescence": "0.329 z-score"}
{"Strand": "TTAGGTCTCAGTCTCGGTTAGTGCTAG", "log fluorescence": "0.717 z-score"}
{"Strand": "GACGGTTTGCTTATCCTGACGTGCTAG", "log fluorescence": "-0.12 z-score"}
{"Strand": "GACAATTTCAGTTCCGAGACGTGCTAG", "log fluorescence": "2.58 z-score"}
{"Strand": "TTAGATTTCGGGAGTGGATTAGTGCTA", "log fluorescence": "2.73 z-score"}
{"Strand": "GACGGTTTCAGTCTCGAGACGTGCTAG", "log fluorescence": "3.54 z-score"}
{"Strand": "TATCAGTAGGTAAGGAAAAGGTGCTAG", "log fluorescence": "5.02 z-score"}
{"Strand": "GACGGTCTCCGTCTCGGGACGTGCTAG", "log fluorescence": "-0.391 z-score"}
{"Strand": "GACGATCTCAGTCTCGAGAAGTGCTAG", "log fluorescence": "0.037 z-score"}
{"Strand": "GACGATATTGGGTTTCGAGACGTGCTA", "log fluorescence": "3.06 z-score"}
{"Strand": "TTAGGACTGGGGACTGGGTTAGTGCTA", "log fluorescence": "-0.482 z-score"}
{"Strand": "GACGGTTTCAGACTGGGGACGTGCTAG", "log fluorescence": "0.609 z-score"}
{"data": "Series 2", "target": "RING finger protein unkempt homolog, zinc fingers 1-6, GST-SBP tag (UNK, Homo sapiens, UniProt Q9C0B0, residues 30-357)", "technique": "RNA Bind-n-Seq", "molecule type": "RNA", "sample": "in vitro", "tested at": "not given", "setting": "RNA with constant flanks, human and mouse sites, ends assumed", "relative to": "input RNA pool", "reading": "higher = stronger binding", "constant ends, left off below": "GGGAGUUCUACAGUCCGACGAUC … CAACAGAGGAUUGAGCAUCA", "Target sequence (chain)": "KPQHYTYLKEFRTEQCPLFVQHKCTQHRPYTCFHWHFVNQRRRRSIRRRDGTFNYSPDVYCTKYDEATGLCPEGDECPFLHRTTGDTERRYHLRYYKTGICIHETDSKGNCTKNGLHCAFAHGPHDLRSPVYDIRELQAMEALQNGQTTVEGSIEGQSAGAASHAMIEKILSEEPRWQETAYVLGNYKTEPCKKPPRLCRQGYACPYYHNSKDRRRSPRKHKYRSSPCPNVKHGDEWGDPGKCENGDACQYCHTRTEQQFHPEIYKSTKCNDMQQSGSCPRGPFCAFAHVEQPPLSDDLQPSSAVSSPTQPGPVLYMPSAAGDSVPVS"}
{"Strand": "AGCCUUCGAGGAAGAGGCCCUCCUCCUUCUUGGGCUUCUGAACCUGAACGCCCAUCCAUCCUUAGUGCAUCCGAACUGAAGGAGCUCGAUAAAUUUGAUAACCUAGAUGCUGAAGCAGAU", "bound/input enrichment [ratio]": 0.338}
{"Strand": "GACCACAAUGCCCCCAUUGAGAAAUAUGACAUUGAAUUUGAGGACAAGGAAAUGGCGCCUGAAAAAUGGUACAGUCUGGGCAAGGUUCCAGGGAACCAGACCUCUACCACCCUCAAGCUG", "bound/input enrichment [ratio]": 0.196}
{"Strand": "GAAGCAGGAGAGGAAGAGGAAAAGGAAAUAGCGAUUGUUCAUAGUGAUGCAGAGAAAGAACAGGAGGAGGAAGAACAAAAACAGGAAAUGGAGGUUAAGAUGGAGGAGGAAACUGAGGUA", "bound/input enrichment [ratio]": 1.51}
{"Strand": "AGCAAUUGCUUUGCAUUUACAGAGAGUUCUCAUGGCUCAGAAGAAUUUCAGAUACAUGUUUUCUCCUGUGAAAUUAAAGAGGCAGUAAGCAGAAUUUUAUAUAGUUUCUGCACUGCAUUC", "bound/input enrichment [ratio]": 0.0898}
{"Strand": "CCAACUUAUGAGACUGGAUCUCUUUCCUUUGCAGGAGACGAGAGAAUAUGAAGUUUCCAUCUAGGUGGGAGCAGCCUGGGGAUGCACACGCAGUCCUGCAUCGCAGGCCAGCGGCAGGGC", "bound/input enrichment [ratio]": 0.125}
{"Strand": "ACUUUUCCAGUAUUUUAGUGGACCCUGAAAUGUGUGUGAUGUGACAUUUGUUAUUUUCAUUAGCAAAAAAAAGAGUUGUAUGAUCUGUGCCUUUUUUAUAUCUUGGCAGGUAGGAAUAUU", "bound/input enrichment [ratio]": 0.625}
{"Strand": "AAGCUGGCUGUUCAGAUUGGCAAAGCAGGUCUGCUGAUGUCUGCCAUCACAGUUAUCAUCCUAGUGUUGUAUUUUGUGAUCGAUACCUUCUGGGUUCAGAAAAGACCAUGGCUUGCAGAG", "bound/input enrichment [ratio]": 0.379}
{"Strand": "UUAUUAUCUGUGCAGCUCACAGUUUUUUUUUUGUAUACAACUCACAGUUCUCAAAUUUUCGUUACCCAUGGGCUUCUGUUGUCCCAUGUUCUCUCCAGUUAAGAUCUAAUUUAAAAUUCA", "bound/input enrichment [ratio]": 1.28}
{"data": "Series 3", "target": "Prothrombin, mature alpha-thrombin (F2, Homo sapiens, UniProt P00734)", "technique": "aptamer microarray, sandwich", "molecule type": "DNA with 2'F-ANA", "sample": "in vitro", "tested at": "200 nM", "setting": "whole 15-mer aptamer, many near background", "together with": "Cy3 exosite-II aptamer, 400 nM", "reading": "higher = stronger binding", "strand": "GGTTGGTGTGGTTGG"}
{"Modification": "2'F-ANA at 3 5 8 10 12 14 15", "mean fluorescence intensity [a.u.]": 52}
{"Modification": "2'F-ANA at 1 4 6 7 12 14 15", "mean fluorescence intensity [a.u.]": 57.8}
{"Modification": "2'F-ANA at 1 2 3 7 9 10 12 13", "mean fluorescence intensity [a.u.]": 84.9}
{"Modification": "2'F-ANA at 1 5 7 9 12 15", "mean fluorescence intensity [a.u.]": 108}
{"Modification": "2'F-ANA at 1 7 9 10 13 14 15", "mean fluorescence intensity [a.u.]": 60.5}
{"Modification": "2'F-ANA at 5 7 9 14", "mean fluorescence intensity [a.u.]": 46.2}
{"Modification": "2'F-ANA at 1 3 4 6 7 8 10 13 15", "mean fluorescence intensity [a.u.]": 57}
{"Modification": "2'F-ANA at 5 7 8 10 11 13", "mean fluorescence intensity [a.u.]": 59.5}
{"Modification": "2'F-ANA at 1 2 4 6 8 9 14 15", "mean fluorescence intensity [a.u.]": 52.3}
{"Modification": "2'F-ANA at 1 3 4 7 8 9 11 13 14 15", "mean fluorescence intensity [a.u.]": 65.2}
{"Modification": "2'F-ANA at 1 2 6 9 10 12 14 15", "mean fluorescence intensity [a.u.]": 48.1}
{"Modification": "2'F-ANA at 1 3 4 5 6 9 10 11 12 13 14", "mean fluorescence intensity [a.u.]": 68.5}
{"Modification": "2'F-ANA at 3 8 11 12", "mean fluorescence intensity [a.u.]": 1280}
{"Modification": "2'F-ANA at 3 4 5 6 7 9 11 14", "mean fluorescence intensity [a.u.]": 49.2}
{"Modification": "2'F-ANA at 2 4 6 8 9 10 12 14 15", "mean fluorescence intensity [a.u.]": 79.4}
{"Modification": "2'F-ANA at 5 7 9 13 14 15", "mean fluorescence intensity [a.u.]": 54.3}
{"Modification": "2'F-ANA at 4 5 6 8 11 12 14", "mean fluorescence intensity [a.u.]": 46.1}
{"Modification": "2'F-ANA at 2 3 4 6 7 14", "mean fluorescence intensity [a.u.]": 299}
{"Modification": "2'F-ANA at 4 8 9 11 13 14", "mean fluorescence intensity [a.u.]": 81.9}
{"Modification": "2'F-ANA at 1 2 7 8 9 11 15", "mean fluorescence intensity [a.u.]": 152}
{"Modification": "2'F-ANA at 1 3 7 8 9 10 11 14 15", "mean fluorescence intensity [a.u.]": 63.1}
{"Modification": "2'F-ANA at 2 5 6 7 9 11", "mean fluorescence intensity [a.u.]": 145}
{"Modification": "2'F-ANA at 3 4 8 10 11 14", "mean fluorescence intensity [a.u.]": 218}
{"Modification": "2'F-ANA at 1 2 4 6 8 11 12", "mean fluorescence intensity [a.u.]": 200}
{"data": "Other studies, line by line", "molecule type": "peptide", "organism": "Saccharomyces cerevisiae", "reading": "direction not given"}
{"Sequence": "REASKSRVQLFKDDPM", "target": "human cyclin E2-Cln2 fusion", "assay": "yeast growth, competitive growth deep sequencing", "conditions": "peptide tiling library", "enrichment score": -1.93}
{"Sequence": "LLRRLQDVANDRG", "target": "Cln2 (Saccharomyces cerevisiae)", "assay": "peptide binding, competitive growth sequencing", "system": "unfused Cln2 strain", "conditions": "mutational scanning library 2", "enrichment score": -1.67}
{"note": "For quick reference, copied from above (series 3):"}
{"Modification": "2'F-ANA at 1 2 4 6 8 9 14 15", "mean fluorescence intensity [a.u.]": 52.3}
{"Modification": "2'F-ANA at 1 3 4 7 8 9 11 13 14 15", "mean fluorescence intensity [a.u.]": 65.2}
{"Modification": "2'F-ANA at 1 2 6 9 10 12 14 15", "mean fluorescence intensity [a.u.]": 48.1}
{"Modification": "2'F-ANA at 1 3 4 5 6 9 10 11 12 13 14", "mean fluorescence intensity [a.u.]": 68.5}
